Measurements collected from several papers.
Numbered parts are unrelated; each lists some results of a single study. Values joined by “and” are separate records of one study, mostly repeats; a detail may differ.
UniProt P78356, sequence (whole entry, looked up): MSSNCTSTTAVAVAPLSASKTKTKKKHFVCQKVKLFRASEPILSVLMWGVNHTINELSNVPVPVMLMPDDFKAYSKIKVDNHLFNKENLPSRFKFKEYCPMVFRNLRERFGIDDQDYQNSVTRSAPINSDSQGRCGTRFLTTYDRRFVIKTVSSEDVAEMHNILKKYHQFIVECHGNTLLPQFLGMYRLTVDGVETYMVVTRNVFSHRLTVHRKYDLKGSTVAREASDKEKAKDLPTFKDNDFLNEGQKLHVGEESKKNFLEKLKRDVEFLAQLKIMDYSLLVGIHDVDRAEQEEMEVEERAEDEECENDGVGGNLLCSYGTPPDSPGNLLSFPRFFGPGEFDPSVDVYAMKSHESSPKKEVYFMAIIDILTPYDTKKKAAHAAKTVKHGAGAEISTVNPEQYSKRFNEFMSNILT
UniProt P49674, sequence (whole entry, looked up): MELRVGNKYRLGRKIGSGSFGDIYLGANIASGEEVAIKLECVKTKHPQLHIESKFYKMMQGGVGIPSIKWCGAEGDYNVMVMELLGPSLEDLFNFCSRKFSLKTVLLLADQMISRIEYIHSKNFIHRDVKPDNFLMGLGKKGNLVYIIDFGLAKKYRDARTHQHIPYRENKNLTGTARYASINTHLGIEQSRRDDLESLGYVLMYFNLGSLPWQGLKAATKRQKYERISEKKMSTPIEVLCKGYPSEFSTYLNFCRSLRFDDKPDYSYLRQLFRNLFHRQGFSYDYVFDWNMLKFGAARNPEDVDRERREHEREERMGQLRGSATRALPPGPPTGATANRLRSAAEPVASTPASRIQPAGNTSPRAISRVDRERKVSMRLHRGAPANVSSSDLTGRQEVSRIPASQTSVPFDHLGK
UniProt P51812, sequence (whole entry, looked up): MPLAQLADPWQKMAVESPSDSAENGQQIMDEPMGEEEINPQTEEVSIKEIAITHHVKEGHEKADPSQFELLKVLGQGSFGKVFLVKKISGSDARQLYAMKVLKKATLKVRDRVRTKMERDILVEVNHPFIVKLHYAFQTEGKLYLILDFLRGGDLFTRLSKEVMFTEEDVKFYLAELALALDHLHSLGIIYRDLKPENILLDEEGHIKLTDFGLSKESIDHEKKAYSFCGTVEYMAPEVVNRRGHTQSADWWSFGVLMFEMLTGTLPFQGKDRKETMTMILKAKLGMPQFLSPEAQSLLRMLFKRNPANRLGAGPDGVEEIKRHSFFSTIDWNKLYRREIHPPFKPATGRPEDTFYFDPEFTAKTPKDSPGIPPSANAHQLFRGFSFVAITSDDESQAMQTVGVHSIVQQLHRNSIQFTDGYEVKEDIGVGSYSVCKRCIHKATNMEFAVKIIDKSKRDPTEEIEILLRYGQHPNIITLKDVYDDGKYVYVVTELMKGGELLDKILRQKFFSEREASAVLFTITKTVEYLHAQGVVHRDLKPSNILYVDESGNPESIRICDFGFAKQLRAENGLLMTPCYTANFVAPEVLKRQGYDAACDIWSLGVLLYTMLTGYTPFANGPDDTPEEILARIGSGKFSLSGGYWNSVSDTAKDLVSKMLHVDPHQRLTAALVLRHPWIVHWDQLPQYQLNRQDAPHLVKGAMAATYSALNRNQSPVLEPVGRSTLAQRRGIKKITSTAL
UniProt Q8WU08, sequence (whole entry, looked up): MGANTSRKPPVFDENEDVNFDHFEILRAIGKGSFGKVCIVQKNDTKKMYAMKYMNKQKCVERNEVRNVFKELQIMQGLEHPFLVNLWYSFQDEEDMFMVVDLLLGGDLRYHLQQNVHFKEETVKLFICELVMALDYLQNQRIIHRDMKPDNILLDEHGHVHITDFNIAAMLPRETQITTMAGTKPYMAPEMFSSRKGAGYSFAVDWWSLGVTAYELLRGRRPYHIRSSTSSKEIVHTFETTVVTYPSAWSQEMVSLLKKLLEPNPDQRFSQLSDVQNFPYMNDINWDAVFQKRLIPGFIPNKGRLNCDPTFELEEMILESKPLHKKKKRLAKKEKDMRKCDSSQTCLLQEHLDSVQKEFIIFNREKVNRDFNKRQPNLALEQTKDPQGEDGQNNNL

Set 1
Target: Calcium/calmodulin-dependent protein kinase type II subunit alpha (CAMK2A, Homo sapiens, UniProt Q9UQM7)
UniProt Q9UQM7, sequence (whole entry, looked up): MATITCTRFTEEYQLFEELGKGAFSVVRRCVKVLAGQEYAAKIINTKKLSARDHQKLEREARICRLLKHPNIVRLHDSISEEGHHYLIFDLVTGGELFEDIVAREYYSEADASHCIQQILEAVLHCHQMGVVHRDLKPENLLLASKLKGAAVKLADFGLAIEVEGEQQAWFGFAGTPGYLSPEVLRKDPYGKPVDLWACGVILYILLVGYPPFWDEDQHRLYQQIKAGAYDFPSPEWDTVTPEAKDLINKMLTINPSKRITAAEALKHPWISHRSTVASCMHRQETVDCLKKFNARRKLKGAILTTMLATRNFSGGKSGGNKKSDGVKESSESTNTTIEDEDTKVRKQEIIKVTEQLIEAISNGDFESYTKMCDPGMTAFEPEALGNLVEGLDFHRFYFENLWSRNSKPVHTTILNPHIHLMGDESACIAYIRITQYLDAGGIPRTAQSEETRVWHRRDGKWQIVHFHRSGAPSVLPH
Observed: enzyme activity
Mode: inhibitor
Tested at: 10 µM
| Compound | inhibition |
| --- | --- |
| O=C(CCBr)N1CCN(C(=O)CCBr)CC1 | 5% |
| CC(C)=CCc1c(-c2ccc(O)c3c2OC(C)(C)C=C3)oc2cc(O)cc(O)c2c1=O | 0% |
| Nc1nc(Cl)nc2c1ncn2[C@H]1C[C@H](O)[C@@H](CO)O1 | 1% |
| C#C[C@]1(O)CC[C@H]2[C@@H]3CCC4=Cc5oncc5C[C@]4(C)[C@H]3CC[C@@]21C | -17% |
| C/C=C(\C)C(=O)O | 9% |
| C[C@]12CCC(=O)C=C1CC[C@@H]1[C@@H]2[C@@H](O)C[C@@]2(C)[C@H]1CC[C@]2(O)C(=O)COC(=O)CCC1CCCC1 | 8% |
| C=C1C[C@@]2(O)O[C@@]3(C[C@H]2C(C)C)[C@@H](C)CC[C@@H]13 | -8% |
| COc1ccc(-c2coc3cc(O)c(OC)c(O)c3c2=O)cc1O | -21% |
| NCC(O)CCC(N)C(=O)O (racemic) | 8% |

Set 2
SMILES: CO[C@H]1CC[C@H](CNc2ccc(S(=O)(=O)NC(=O)c3ccc(N4CCN(CC5=C(c6ccc(Cl)cc6)CC(C)(C)CC5)CC4)cc3Oc3cnc4[nH]ccc4c3)cc2[N+](=O)[O-])CC1
Observed: cell-free assay
Method: competition with immobilised ligand
Tested at: 1 µM
| target | remaining binding [%] |
| --- | --- |
| Tyrosine-protein kinase ABL1, phosphorylated (ABL1, Homo sapiens, UniProt P00519, Y253F) | 100 |
| GAK (Homo sapiens, UniProt O14976) | 99 |
| STK32A (Homo sapiens, UniProt Q8WU08) | 99 |
| CSNK1E (Homo sapiens, UniProt P49674) | 88 |
| FLT1 (Homo sapiens, UniProt P17948) | 85 |
| WNK4 (Homo sapiens, UniProt Q96J92) | 67 |
| DSTYK (Homo sapiens, UniProt Q6XUX3) | 100 |
| Tyrosine-protein kinase ABL1, phosphorylated (ABL1, Homo sapiens, UniProt P00519) | 71 |
| PIP4K2B (Homo sapiens, UniProt P78356) | 96 |
| Ribosomal protein S6 kinase alpha-3, C-terminal kinase domain (RPS6KA3, Homo sapiens, UniProt P51812) | 100 |
| BLK (Homo sapiens, UniProt P51451) | 76 |
| ERBB4 (Homo sapiens, UniProt Q15303) | 80 |
| DAPK3 (Homo sapiens, UniProt O43293) | 68 |
| EGFR (Homo sapiens, UniProt P00533, L858R/T790M) | 98 |
| RIPK4 (Homo sapiens, UniProt P57078) | 65 |

Set 3
Structure (SMILES): COc1cc(C(=O)N2CCC(N3CCN(C)CC3)CC2)ccc1Nc1ncc2c(n1)N(C)c1ccccc1C(=O)N2C
| tested on | test | test system | conditions | inhibition |
| --- | --- | --- | --- | --- |
| AMPKa1 and AMPKa2 (mouse) | probe labelling, KiNativ, measured: VAVkILNR peptide, Lys1 site | brain tissue lysate (mouse) | 1 µM, together with: ADP acyl-phosphate probe | -14.9% |
| WNK1/WNK2 (mouse) | probe labelling, inhibitor, KiNativ ActivX ATP probe | mouse brain lysate | 1 µM, ATP loop peptide GSFkTVYK | 5.7% |
| CaMKK1 (mouse) | probe labelling, KiNativ, measured: Lys1 site peptide | brain tissue lysate (mouse) | 1 µM, together with: ATP acyl-phosphate probe | 1% |
| mouse CaMK2γ | probe labelling, KiNativ ADP probe | mouse brain lysate | 1 µM, LYS1 site TSTQEYAAkIINTK | 13% |
| IGF1R (mouse) | probe labelling, KiNativ ADP probe | mouse brain lysate | 1 µM, LYS1 labelled site | 7.6% |
| human PBMC | probe labeling, inhibitor, KiNativ profiling, measured: DIkSQNIFLTK | cell lysate | concentration not given, LYS2 site, together with: ATP acyl-phosphate probe | -1.1% |
| human PBMC | probe labeling, inhibitor, KiNativ profiling, measured: YVAVkIHQLNK | cell lysate | concentration not given, LYS1 site, together with: ATP acyl-phosphate probe 1 µM | -1.3% |
| mouse PYK2 | probe labelling, KiNativ ATP probe | mouse brain lysate | 1 µM | -4.6% |
| mouse CaMK1α | probe labelling, KiNativ ATP probe | mouse brain lysate | 0.1 µM, LYS1 site LVAIkCIAK | -7.7% |
| HGK (MAP4K4) human | KiNativ profiling | human PBMC lysate | concentration not given, Lys1 site, together with: ATP probe 1 µM | -14.2% |

Set 4
Target: DNA polymerase theta, ATPase domain (POLQ, Homo sapiens, UniProt O75417)
UniProt O75417, sequence (whole entry, unmodified, looked up): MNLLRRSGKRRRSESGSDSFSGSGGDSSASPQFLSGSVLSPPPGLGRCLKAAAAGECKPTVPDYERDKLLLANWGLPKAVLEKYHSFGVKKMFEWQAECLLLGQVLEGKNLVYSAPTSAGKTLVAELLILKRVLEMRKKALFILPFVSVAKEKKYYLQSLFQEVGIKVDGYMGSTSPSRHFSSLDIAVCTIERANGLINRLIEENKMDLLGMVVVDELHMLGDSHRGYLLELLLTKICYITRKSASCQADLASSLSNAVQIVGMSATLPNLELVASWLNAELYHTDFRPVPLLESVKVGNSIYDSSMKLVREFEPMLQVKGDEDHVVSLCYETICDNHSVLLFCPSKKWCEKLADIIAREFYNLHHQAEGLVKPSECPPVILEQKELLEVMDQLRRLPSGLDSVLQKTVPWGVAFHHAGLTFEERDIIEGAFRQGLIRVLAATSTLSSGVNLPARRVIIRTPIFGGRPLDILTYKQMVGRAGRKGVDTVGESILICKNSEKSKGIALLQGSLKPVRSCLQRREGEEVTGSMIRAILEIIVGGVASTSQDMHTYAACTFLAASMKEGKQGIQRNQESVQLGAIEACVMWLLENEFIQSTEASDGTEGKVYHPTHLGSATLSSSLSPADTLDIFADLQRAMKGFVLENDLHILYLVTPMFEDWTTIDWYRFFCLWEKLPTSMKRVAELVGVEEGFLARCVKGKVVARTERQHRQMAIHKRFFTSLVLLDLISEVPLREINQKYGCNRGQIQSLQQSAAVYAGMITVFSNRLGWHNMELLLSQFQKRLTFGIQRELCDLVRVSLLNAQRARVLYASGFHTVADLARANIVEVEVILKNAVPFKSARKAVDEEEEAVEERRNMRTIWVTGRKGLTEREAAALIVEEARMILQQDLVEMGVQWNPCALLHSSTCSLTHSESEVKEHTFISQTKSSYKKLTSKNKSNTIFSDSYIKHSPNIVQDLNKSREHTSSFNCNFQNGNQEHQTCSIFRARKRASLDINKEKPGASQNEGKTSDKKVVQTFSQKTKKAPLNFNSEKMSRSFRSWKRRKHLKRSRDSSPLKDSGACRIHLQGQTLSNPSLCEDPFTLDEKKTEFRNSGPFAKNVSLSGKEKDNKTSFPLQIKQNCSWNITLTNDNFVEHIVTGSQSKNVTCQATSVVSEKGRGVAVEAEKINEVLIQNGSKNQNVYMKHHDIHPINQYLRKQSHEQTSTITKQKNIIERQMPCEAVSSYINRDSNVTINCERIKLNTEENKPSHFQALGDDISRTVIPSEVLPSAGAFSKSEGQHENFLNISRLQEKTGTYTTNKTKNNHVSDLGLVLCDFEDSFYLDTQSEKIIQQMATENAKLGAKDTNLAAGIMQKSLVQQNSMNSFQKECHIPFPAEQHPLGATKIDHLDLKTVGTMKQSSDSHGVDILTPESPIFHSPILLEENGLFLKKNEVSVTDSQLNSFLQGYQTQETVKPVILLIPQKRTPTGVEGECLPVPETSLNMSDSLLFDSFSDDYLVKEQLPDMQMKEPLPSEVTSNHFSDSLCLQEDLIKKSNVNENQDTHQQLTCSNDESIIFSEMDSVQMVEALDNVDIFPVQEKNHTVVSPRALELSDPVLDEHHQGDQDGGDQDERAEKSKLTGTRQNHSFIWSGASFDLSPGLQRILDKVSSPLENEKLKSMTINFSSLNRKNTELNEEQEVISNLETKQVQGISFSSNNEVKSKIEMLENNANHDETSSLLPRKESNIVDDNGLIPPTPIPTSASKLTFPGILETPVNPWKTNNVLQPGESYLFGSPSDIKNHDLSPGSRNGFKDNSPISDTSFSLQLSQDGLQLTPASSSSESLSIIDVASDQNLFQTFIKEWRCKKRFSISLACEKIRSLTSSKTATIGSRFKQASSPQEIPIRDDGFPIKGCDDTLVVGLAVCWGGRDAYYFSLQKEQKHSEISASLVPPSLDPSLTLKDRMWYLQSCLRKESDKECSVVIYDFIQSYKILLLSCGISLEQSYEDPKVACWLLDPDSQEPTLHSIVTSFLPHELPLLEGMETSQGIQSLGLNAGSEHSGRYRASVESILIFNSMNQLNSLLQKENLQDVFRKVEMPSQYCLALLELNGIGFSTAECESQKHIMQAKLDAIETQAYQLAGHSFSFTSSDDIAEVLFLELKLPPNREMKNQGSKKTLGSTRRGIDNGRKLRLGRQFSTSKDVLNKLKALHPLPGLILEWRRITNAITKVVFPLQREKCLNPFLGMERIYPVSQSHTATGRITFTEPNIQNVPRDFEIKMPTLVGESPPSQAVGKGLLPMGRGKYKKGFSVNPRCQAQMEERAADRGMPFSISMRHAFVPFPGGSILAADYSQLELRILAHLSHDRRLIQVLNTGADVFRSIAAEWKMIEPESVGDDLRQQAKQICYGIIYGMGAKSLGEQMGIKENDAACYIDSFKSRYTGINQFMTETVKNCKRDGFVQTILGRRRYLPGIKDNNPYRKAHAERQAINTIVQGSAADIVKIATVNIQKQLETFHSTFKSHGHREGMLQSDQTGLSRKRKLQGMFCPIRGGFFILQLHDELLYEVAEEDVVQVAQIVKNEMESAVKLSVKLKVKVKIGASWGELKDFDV
Observed: enzyme activity
Mode: inhibitor
Tested at: 77 µM
Relative to: untreated
| Compound | remaining activity |
| --- | --- |
| CC(=O)OCC(=O)[C@@]12OC(C)(C)O[C@@H]1C[C@H]1[C@@H]3C[C@H](F)C4=CC(=O)C=C[C@]4(C)[C@@]3(F)[C@@H](O)C[C@@]12C | 90.4% and 101% |
| O=C(c1cc2cc(O)ccc2[nH]1)c1cc2cc(O)ccc2[nH]1 | 113% |
| COc1ccc(NS(=O)(=O)c2ccc(N)cc2)nn1 | 94.8% and 99.9% |
| CC(=O)CC(c1ccc([N+](=O)[O-])cc1)c1c(O)c2ccccc2oc1=O (stereo not shown) | 86.6% |
| CCOc1ccc(Cc2cc([C@@H]3O[C@H](CO)[C@@H](O)[C@H](O)[C@H]3O)ccc2Cl)cc1 | 95.6% |
| CC(=O)OCC(=O)[C@@]1(O)[C@H](C)C[C@H]2[C@@H]3CCC4=CC(=O)C=C[C@]4(C)[C@@]3(F)[C@@H](O)C[C@@]21C | 99.5% |
| COc1ccc([C@H]2CNC(=O)C2)cc1OC1CCCC1 | 100% |
| COc1cc2ncnc(Nc3ccc(OCc4ccccc4)cc3)c2cc1OC | 104% |
| OCC(O)CN1CCN(c2ccccc2)CC1 (stereo not shown) | 100% |

Excerpt of the above (set 3):
| tested on | test | test system | conditions | inhibition |
| --- | --- | --- | --- | --- |
| human PBMC | probe labeling, inhibitor, KiNativ profiling, measured: DIkSQNIFLTK | cell lysate | concentration not given, LYS2 site, together with: ATP acyl-phosphate probe | -1.1% |
| human PBMC | probe labeling, inhibitor, KiNativ profiling, measured: YVAVkIHQLNK | cell lysate | concentration not given, LYS1 site, together with: ATP acyl-phosphate probe 1 µM | -1.3% |
| mouse PYK2 | probe labelling, KiNativ ATP probe | mouse brain lysate | 1 µM | -4.6% |
| mouse CaMK1α | probe labelling, KiNativ ATP probe | mouse brain lysate | 0.1 µM, LYS1 site LVAIkCIAK | -7.7% |
| HGK (MAP4K4) human | KiNativ profiling | human PBMC lysate | concentration not given, Lys1 site, together with: ATP probe 1 µM | -14.2% |
